{"data": "Results from different studies", "note": "Numbered parts are unrelated; each lists some results of a single study."}
{"data": "Block 1", "target": "Centromere-binding protein 1, full length, His-tagged (CBF1, Saccharomyces cerevisiae, UniProt P17106, residues 1-351)", "technique": "competition protein-binding microarray", "form": "double-stranded DNA, one strand shown", "sample": "in vitro", "tested at": "2 µM", "notes": "whole 60-bp probe, lowest competitor level", "added": "Pho4 competitor, 0.05 µM", "direction": "higher = stronger binding", "chain of UniProt P17106 (whole entry, looked up)": "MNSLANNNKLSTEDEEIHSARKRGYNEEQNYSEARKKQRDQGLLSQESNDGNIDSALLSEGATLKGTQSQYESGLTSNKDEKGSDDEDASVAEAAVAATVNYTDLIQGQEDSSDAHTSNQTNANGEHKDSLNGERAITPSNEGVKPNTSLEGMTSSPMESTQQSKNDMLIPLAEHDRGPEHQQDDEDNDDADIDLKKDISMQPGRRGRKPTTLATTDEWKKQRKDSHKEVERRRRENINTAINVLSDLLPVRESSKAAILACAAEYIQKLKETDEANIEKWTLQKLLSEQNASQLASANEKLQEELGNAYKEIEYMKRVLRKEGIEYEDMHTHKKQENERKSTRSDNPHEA"}
{"Sequence": "AATTCCACACCGCACCATGTGCCCATCAAGTCCAACGTCTTGATTCGCTTGACGCTGCTG", "fluorescence intensity": "128 a.u."}
{"Sequence": "CTAACGAAGGTTTTTCACGTGTAATACAAGCCAAGTGTCTTGATTCGCTTGACGCTGCTG", "fluorescence intensity": "742 a.u."}
{"Sequence": "TGGCATGAGTGGCAGCATGTGCCTCATATCCATTGGGTCTTGATTCGCTTGACGCTGCTG", "fluorescence intensity": "101 a.u."}
{"Sequence": "AAATTACTAAGTTGTCACTAGACTTACCCCGTATGAGTCTTGATTCGCTTGACGCTGCTG", "fluorescence intensity": "76.5 a.u."}
{"data": "Block 2", "target": "Histone acetyltransferase KAT6A, both winged helices, GST fusion (KAT6A, Homo sapiens, UniProt Q92794, residues 1-181)", "technique": "protein binding microarray", "form": "double-stranded DNA, one strand shown", "sample": "in vitro", "tested at": "not given", "notes": "8-mer, flanks averaged, mean of 2 arrays, mostly near background", "reference": "not given", "direction": "higher = stronger binding", "Residues (chain)": "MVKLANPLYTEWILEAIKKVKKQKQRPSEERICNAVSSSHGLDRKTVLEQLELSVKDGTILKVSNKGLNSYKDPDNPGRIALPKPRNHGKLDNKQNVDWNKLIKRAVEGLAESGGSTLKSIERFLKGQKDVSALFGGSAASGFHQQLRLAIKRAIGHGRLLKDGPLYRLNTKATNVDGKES"}
{"Sequence": "CTTGTGAA", "E-score": -0.0699}
{"Sequence": "TGCAGAAA", "E-score": 0.0295}
{"Sequence": "AGAAGGCA", "E-score": -0.238}
{"Sequence": "TCGCCAAA", "E-score": -0.0242}
{"data": "Block 3", "target": "RING finger protein unkempt homolog, zinc fingers 1-6, GST-SBP tag (UNK, Homo sapiens, UniProt Q9C0B0, residues 30-357)", "technique": "RNA Bind-n-Seq", "form": "RNA", "sample": "in vitro", "tested at": "not given", "notes": "RNA with constant flanks, human-mouse chimeric sites, ends assumed", "reference": "input RNA pool", "direction": "higher = stronger binding", "constant ends, left off below": "GGGAGUUCUACAGUCCGACGAUC … CAACAGAGGAUUGAGCAUCA", "chain of UniProt Q9C0B0 (30-357, looked up)": "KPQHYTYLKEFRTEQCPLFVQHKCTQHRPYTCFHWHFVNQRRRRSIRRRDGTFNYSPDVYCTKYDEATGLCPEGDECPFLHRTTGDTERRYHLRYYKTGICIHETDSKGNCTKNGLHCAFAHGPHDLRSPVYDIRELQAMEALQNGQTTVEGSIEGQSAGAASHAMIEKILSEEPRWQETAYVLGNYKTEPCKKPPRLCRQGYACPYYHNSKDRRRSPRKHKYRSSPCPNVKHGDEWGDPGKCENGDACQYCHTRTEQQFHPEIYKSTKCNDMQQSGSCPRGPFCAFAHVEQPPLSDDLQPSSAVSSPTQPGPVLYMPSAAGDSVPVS"}
{"Sequence": "UGACAAGCACGAGCAUCAGCCAUGCCUUUCCUUGACAUACAGAAAAAGCUGGGCAUCAGCCUGGACCGGCACUUUAUGUUCCUAAGCGCAGAACAGCCCUACAAGAUCGCCGCUCGGUGC", "bound/input enrichment": "0.109 ratio"}
{"Sequence": "CACAGAGGAGAUCUGCUGUUCCUCACAAAUUUCCGGGAGGACCCCAUCAGAGCUGGUGAAAUAGUUGUUUUUAAAGUUGAAGGAAGAGACAUUCCGAUAGUUCACAGAGUAAUCAAGGUU", "bound/input enrichment": "3.95 ratio"}
{"Sequence": "AUCAAAUACUUUGGGGACAUCAUUAGUGUGGGACAGAGACUGUUGCAAGGAGCUCGGAUUUUAGGAAUUCCAGUUAUCAUAACGGAACAAUACCCUAAAGGACUUGGCAGCACCGUUCAA", "bound/input enrichment": "0.187 ratio"}
{"Sequence": "UUCUAGUAUGAUGGUGAUAUUGGCAAUUAUUAUUAUGGCCAGGGUCAUCCCAUGAAGCCUCAUAGAAUCCGCAUGACUCAUAACUUGCUGCUAAAUUAUGGUUUAUACCGAAAAAUGGAA", "bound/input enrichment": "0.191 ratio"}
{"Sequence": "CCUCCCCCGGGCCACCCACCCCUCCCGGCUCCCCGCCGAGAUCCAGGUUUCUUCUUAUUUCAUAGCAAGCCAGAACAAUGUUCUACGCACAUUUUGUCCUCAGUAAACGAGGGCCUCUGG", "bound/input enrichment": "2.04 ratio"}
{"data": "Single results of other studies"}
{"Molecule": "PhoQ, residues 284 288 289 292 302 303 GLASVI", "target": "PhoP, residues 12 14 15 18 19 LWHCS (Escherichia coli, UniProt P23836)", "test": "Sort-seq, item: YFP reporter", "system": "E. coli", "setting": "PhoQ-PhoP variant library, added: 10 µM Mg2+", "how to read": "reference: high Mg2+ state, higher = stronger signaling", "measurement": "fold induction", "value": 9.05}
{"note": "Excerpt of the above (block 1):"}
{"Sequence": "AAATTACTAAGTTGTCACTAGACTTACCCCGTATGAGTCTTGATTCGCTTGACGCTGCTG", "fluorescence intensity": "76.5 a.u."}
